{"data": "Measurements gathered from unrelated publications", "note": "Protocols differ between the studies behind these lines. Numbers after ± are the reported error."}
{"Compound": "Cc1cc(Nc2ncnc3ccc(NC4=NC(C)(C)CO4)cc23)ccc1Oc1ccn2ncnc2c1", "system": "human, plasma", "conditions": "oral, 300 mg, day 1, single dose alone", "measurement": "CL/F, geometric mean", "result": "148 L/h"}
{"Compound": "N#Cc1ccc2c(c1)[C@H]1CCCN(C(=O)c3ccc4[nH]cnc4c3)[C@H]1C2", "system": "human, male", "conditions": "240 mg, day 15", "measurement": "androstenedione level", "result": "6.5 nmol/L"}
{"Compound": "CN1C(=O)[C@@H](NC(=O)c2nnc(Cc3ccccc3)[nH]2)COc2cccnc21", "system": "human, both sexes", "conditions": "oral, 600 mg", "measurement": "t½", "result": "6 to 9 h"}
{"Compound": "OCc1cc(C(O)CNCCCCCCOCCCCc2ccccc2)ccc1O (stereo not shown)", "assay": "equilibrium dialysis", "system": "rat, plasma", "measurement": "fraction unbound", "result": 0.075}
{"Compound": "COc1cc2c3cc1Oc1c(OC)c(OC)cc4c1[C@@H](Cc1ccc(O)c(c1)Oc1ccc(cc1)C[C@@H]3N(C)CC2)N(C)CC4", "system": "mouse plasma, K3EDTA", "conditions": "1 h, 25-26 °C, room temperature", "measurement": "remaining compound", "result": "98%"}
{"Compound": "C=CCN1CC(=O)N2[C@@H](Cc3ccc(O)cc3F)C(=O)N(Cc3cccc(N4CC(N5CCN(CC)CC5)C4)n3)C[C@@H]2N1C(=O)NCc1ccccc1", "system": "advanced solid tumour patients", "conditions": "oral, 45 mg twice daily, grade ≥3, dose-escalation", "measurement": "treatment-related vomiting", "result": "0%"}
{"Compound": "C[C@H]1Oc2cc(cnc2N)-c2c(nn(C)c2C#N)CN(C)C(=O)c2ccc(F)cc21", "assay": "population PK", "system": "patients with mild hepatic impairment (NCI sample A), plasma", "conditions": "oral, 100 mg, median, single dose", "measurement": "clearance", "result": "137 mL/min"}
{"Compound": "O=C1CCC(=O)N1Cc1cc2nccc(-c3cc(Cl)cc4c3N([C@@H]3CNC5(CCC5)C3)CCC4)c2s1", "system": "mouse, MV4-11 xenograft", "conditions": "40 mg/kg twice daily, brief dosing holidays in some mice", "measurement": "body weight loss", "result": "> 15%"}
{"Compound": "CCc1nc(C(N)=O)c(Nc2ccc(N3CCC(N4CCN(C)CC4)CC3)c(OC)c2)nc1NC1CCOCC1", "system": "Japanese patients, plasma and urine", "conditions": "oral, 80 mg, cycle 1 day 28, multiple doses, median", "measurement": "renal clearance", "result": "30.8 mL/min"}
{"Compound": "C[C@@H]1COCCN1c1cc(C2([S@](C)(=N)=O)CC2)nc(-c2cc[nH]c3nccc2-3)n1", "system": "Japanese advanced solid tumour patients", "conditions": "oral, 160 mg twice daily, any grade", "measurement": "Nausea incidence", "result": "66.7%"}
{"Compound": "OC[C@H]1O[C@@H](c2ccc(Cl)c(Cc3ccc(O[C@H]4CCOC4)cc3)c2)[C@H](O)[C@@H](O)[C@@H]1O", "system": "Japanese type 1 diabetes patients, blood", "conditions": "25 mg, day 28", "how to read": "baseline: baseline", "measurement": "change in Magnesium", "result": "0.1 mEq/L"}
{"Compound": "N[C@@H](CC(=O)O)C(=O)OC(C(=O)O)c1ccccc1[N+](=O)[O-].O=C(O)C(F)(F)F (mixture of isomers)", "assay": "1H NMR, dark", "system": "50 mM sodium phosphate", "conditions": "concentration not given, pH 5.8, room temperature, 12.5% DMSO-d6", "measurement": "hydrolysis half-life, B isomer", "result": "23 ± 2 h"}
{"Compound": "C/C(=N\\NC(=O)Cn1c(-c2ccc(S(C)(=O)=O)cc2)nc2cc(Cl)ccc21)c1ccc(Cl)cc1", "system": "rat, stomach", "conditions": "concentration not given, 4 h", "how to read": "baseline: indomethacin", "measurement": "ulcer index", "result": "7.6%"}
{"Compound": "COc1ccnc(C(=O)N[C@H]2COC(=O)[C@H](Cc3ccccc3)[C@@H](O)[C@H](C)OC2=O)c1O", "assay": "aerobic dark soil incubation", "system": "sandy loam soil", "conditions": "20 °C, persistence endpoint", "measurement": "DT50", "result": "18.9 days"}
{"Compound": "CO[C@H]1C[C@@H]2CC[C@@H](C)[C@@](O)(O2)C(=O)C(=O)N2CCCC[C@H]2C(=O)O[C@H]([C@H](C)C[C@@H]2CC[C@@H](O)[C@H](OC)C2)CC(=O)[C@H](C)/C=C(\\C)[C@@H](O)[C@@H](OC)C(=O)[C@H](C)C[C@H](C)/C=C/C=C/C=C/1C", "system": "healthy adult horses", "conditions": "oral, 0.06 mg/kg, 72 h", "measurement": "heart rate", "result": "33.5 ± 1.9 beats/min"}
{"Compound": "NC1(C(=O)N[C@@H](CCO)c2ccc(Cl)cc2)CCN(c2nc[nH]c3nccc2-3)CC1", "system": "metastatic CRPC patients", "conditions": "480 mg b.i.d., grade 3 to 4, treatment-related, with: enzalutamide 160 mg daily", "measurement": "incidence of Amnesia", "result": "0%"}
{"Compound": "O=C(O)CCC(=O)O.[2H]C([2H])([2H])Oc1cc(C)c2[nH]ccc2c1CN1CC[C@@H](C2CC2)C[C@H]1c1ccc(C(=O)O)cc1", "assay": "multiple ascending dose", "system": "healthy Chinese subjects", "conditions": "100 mg twice daily", "measurement": "subjects with neutropenia", "result": "0%"}
{"Compound": "C[C@@H](Oc1ccc(S(C)(=O)=O)cc1C(=O)N1C[C@@H]2C[C@]2(c2cc(C(F)(F)F)on2)C1)C(F)(F)F", "system": "healthy young humans", "conditions": "oral, 75 mg single dose", "measurement": "CL/F", "result": "133 mL/min"}
{"Compound": "NCCONC(=O)[C@@H]1CC[C@@H]2CN1C(=O)N2OS(=O)(=O)O", "system": "human, male, urine", "conditions": "intravenous infusion, 1 g single dose", "how to read": "baseline: dose", "measurement": "cumulative urinary excretion (0-24 h)", "result": "84.9%"}
{"note": "Repeated from above:"}
{"Compound": "OCc1cc(C(O)CNCCCCCCOCCCCc2ccccc2)ccc1O (stereo not shown)", "assay": "equilibrium dialysis", "system": "rat, plasma", "measurement": "fraction unbound", "result": 0.075}
{"Compound": "COc1ccnc(C(=O)N[C@H]2COC(=O)[C@H](Cc3ccccc3)[C@@H](O)[C@H](C)OC2=O)c1O", "assay": "aerobic dark soil incubation", "system": "sandy loam soil", "conditions": "20 °C, persistence endpoint", "measurement": "DT50", "result": "18.9 days"}
